Assay results from different studies.
Protocols differ between the studies behind these lines. Values joined by “and” are separate records of one study, mostly repeats; a detail may differ. ± marks the error that the study gave.
Cell line: RPMI-8226

Cc1cc(=O)[nH]c(=O)n1Cc1cn(-c2cc3ccccc3oc2=O)nn1  growth percentage (NCI60 single-dose screen; 10 µM): 99.9%
C#C[C@@]1(O)[C@@H](CO)O[C@@H](n2cc(I)c3c(N)ncnc32)[C@@H]1O  TGI (SRB; NCI-60 screen): 6650 nM and 4570 nM
Nc1cccc2c1C(=O)N(C1CCC(=O)NC1=O)C2=O (stereo not drawn)  surface marker level (flow cytometry, item: CD33; concentration not given; reference: comparator compound alone): 153%
CCOC(=O)/C=C/C(=O)N(CC(C)C)NC(=O)[C@H](Cc1ccccc1)NC(=O)[C@H](CC(C)C)NC(=O)[C@H](CCc1ccccc1)NC(=O)OCc1ccccc1  viability decrease (MTS; 10 µM, 72 h): 25%
Cc1n[nH]c2nc(-c3ccc(Cl)cc3)c3c(NC(=O)c4ccccc4)nnc-3n12  cell growth (SRB; 10 µM, NCI60 single-dose screen; reference: untreated): 84.3%
CCCCN1CCN(c2ccc3[nH]c(-c4ccc5[nH]c(-c6ccc(OCC)c(OCC)c6)nc5c4)nc3c2)CC1  growth percent (SRB; 10 µM, 48 h): -25.4%
Cc1cc(C)n(-c2nc(-c3ccc(Cl)cc3)c3c(NC(=O)c4ccccc4)nnc-3[nH]2)n1  cell growth (SRB; 10 µM, NCI60 single-dose screen; reference: untreated): 95%
CCCCN1CCN(c2ccc3[nH]c(-c4ccc5[nH]c(-c6ccc(OCC)cc6)nc5c4)nc3c2)CC1  growth percent (SRB; 10 µM, 48 h): -25.3%
C#C[C@@]1(O)[C@@H](CO)O[C@@H](n2cc(Cl)c3c(N)ncnc32)[C@@H]1O  TGI (SRB; NCI-60 screen): 521 nM and 708 nM
O=C(Nc1nnc2n3c(nc(-c4ccc(Cl)cc4)c1-2)SCC3=O)c1ccccc1  cell growth (SRB; 10 µM, NCI60 single-dose screen; reference: untreated): 93.3%
CCCCN1CCN(c2ccc3[nH]c(-c4ccc5[nH]c(-c6ccc(C(F)(F)F)cc6)nc5c4)nc3c2)CC1  growth percent (SRB; 10 µM, 48 h): -35.3%
Cc1cc(C)n(C(=S)[S][Au][PH](CCCCCC[PH]([Au][S]C(=S)n2nc(C)cc2C)(c2ccccc2)c2ccccc2)(c2ccccc2)c2ccccc2)n1  log10 TGI (cell growth, NCI-60 screen; leukemia): -6.38
O=C(Nc1nnc2n3c(Cc4ccccc4)n[nH]c3nc(-c3ccc(Cl)cc3)c1-2)c1ccccc1  cell growth (SRB; 10 µM, NCI60 single-dose screen; reference: untreated): 93.2%
CCn1cc(-c2cc(Cn3ccoc3=N)cc3c2CCN([C@@H](C)c2cc(OC)ccn2)C3=O)c(C(F)(F)F)n1  EC50 (cell growth, inhibitor; 120 h): 1490 nM
CC(C)(C)NC(=O)C[C@H](NC(=O)C(=O)c1c[nH]c2ccccc12)C(=O)NCc1cccc(B(O)O)c1  EC50 (cytotoxicity; 72 h, 10% FBS): 2300 ± 600 nM
C#C[C@@]1(O)[C@@H](CO)O[C@@H](n2cc(Br)c3c(N)ncnc32)[C@@H]1O  TGI (SRB; NCI-60 screen): 733 nM and 934 nM
O=C1NC(=NCc2cccs2)S/C1=C\c1ccc2ncccc2c1  IC50 (cytotoxicity, MTS; NCI60 panel; multiple myeloma): 9000 nM
CCN(CC)c1ccc(C=NNC(=O)CSc2nc3ccccc3c(=O)n2Cc2ccc(S(N)(=O)=O)cc2)c(O)c1  TGI (NCI five-dose screen): 4850 nM
O=C1NC(c2ccccc2)(c2ccccc2)C(=O)N1Cc1cn(-c2c3ccccc3nc3ccccc23)nn1  growth percentage (NCI60 single-dose screen; 10 µM): 72.4%
CCOC(=O)CSc1nc(-c2ccc(Cl)cc2)c2c(NC(=O)c3ccccc3)nnc-2[nH]1  cell growth (SRB; 10 µM, NCI60 single-dose screen; reference: untreated): 82.2%
CCCN1CCN(c2ccc3[nH]c(-c4ccc5[nH]c(-c6ccc(C(F)(F)F)cc6)nc5c4)nc3c2)CC1  growth percent (SRB; 10 µM, 48 h): -29.9%
Cn1cncc1C1=CN(c2ncnc3[nH]cnc23)CCS1  TGI (leukemia): 69200 nM
NNc1nc(-c2ccc(Cl)cc2)c2c(NC(=O)c3ccccc3)nnc-2[nH]1  cell growth (SRB; 10 µM, NCI60 single-dose screen; reference: untreated): 96.5%
CCOc1ccc(-c2nc3cc(-c4nc5cc(N6CCN(C)CC6)ccc5[nH]4)ccc3[nH]2)cc1OCC  growth percent (SRB; 10 µM, 48 h): 45.8%
CC(=O)O[C@H]1C(=O)[C@@]2(C)[C@H]([C@H](OC(=O)c3ccccc3)[C@]3(O)C[C@H](OC(=O)[C@H](O)[C@@H](NC(=O)c4ccccc4)c4ccccc4)C(C)=C1C3(C)C)[C@]1(OC(C)=O)CO[C@@H]1C[C@@H]2O  TGI (sulforhodamine B; Leukemia cancer; NCI60 screen): 320 nM
CCCC(CCC)C(=O)OCc1cn(-c2c3ccccc3nc3ccccc23)nn1  growth percentage (NCI60 single-dose screen; 10 µM): 91.5%
CCCN1CCN(c2ccc3[nH]c(-c4ccc5[nH]c(-c6ccc(OCC)c(OCC)c6)nc5c4)nc3c2)CC1  growth percent (SRB; 10 µM, 48 h): -18.9%

For quick reference, copied from above:
NNc1nc(-c2ccc(Cl)cc2)c2c(NC(=O)c3ccccc3)nnc-2[nH]1  cell growth (SRB; 10 µM, NCI60 single-dose screen; reference: untreated): 96.5%
CCOc1ccc(-c2nc3cc(-c4nc5cc(N6CCN(C)CC6)ccc5[nH]4)ccc3[nH]2)cc1OCC  growth percent (SRB; 10 µM, 48 h): 45.8%
CC(=O)O[C@H]1C(=O)[C@@]2(C)[C@H]([C@H](OC(=O)c3ccccc3)[C@]3(O)C[C@H](OC(=O)[C@H](O)[C@@H](NC(=O)c4ccccc4)c4ccccc4)C(C)=C1C3(C)C)[C@]1(OC(C)=O)CO[C@@H]1C[C@@H]2O  TGI (sulforhodamine B; Leukemia cancer; NCI60 screen): 320 nM
